Literature values that unrelated publications cite.
Each line is one published result; not all experiments were run side by side. Numbers after ± are the reported error.

For `C=C(C)[C@@H]1CCC(C(=O)O)=C[C@H]1c1c(O)cc(CCCCC)cc1O`, “increase in AUC(0-tau)” read 32% (healthy volunteers; dose not given, steady state, added: valproate).
`Br.Br.Br.CNC1C(O)C(NC)C2OC3(O)C(OC(C)C[C@H]3NC(=O)Cc3ccccn3)OC2C1O` (stereo partly shown) gave a half-life of > 10 h (mouse liver microsomes).
`C[C@H](Nc1c(-c2c(F)cc(OCCCN(C)C)cc2F)c(Cl)nc2ncnn12)C(F)(F)F`: “brain-to-plasma AUC ratio” 0.37 (mice).
`CN(C)C(=N)N=C(N)N` gave an oral absorption of 50% (human; dose not given).
Under respiratory rate, `CC(=O)N1CC2(CCN(C(=O)[C@@H](CCCCN)NC(=O)[C@@H](CC(C)C)NC(=O)[C@@H](Cc3ccccc3)NC(=O)[C@H](N)Cc3ccccc3)CC2)C1` is recorded as “no effect” (whole body plethysmography; mouse; 2.0 mg/kg).
Under “maximum tolerated dose”, `CN[C@H](CC(C)C)C(=O)N[C@H]1C(=O)N[C@@H](CC(N)=O)C(=O)N[C@H]2C(=O)N[C@H]3C(=O)N[C@H](C(=O)N[C@H](C(=O)NCCCNC(=N)N)c4cc(O)cc(O)c4-c4cc3ccc4O)[C@H](O)c3ccc(c(Cl)c3)Oc3cc2cc(c3O[C@@H]2O[C@H](CO)[C@@H](O)[C@H](O)[C@H]2O[C@H]2C[C@](C)(NCc3ccc(-c4ccc(Cl)cc4)cc3)[C@H](O)[C@H](C)O2)Oc2ccc(cc2Cl)[C@H]1O` is recorded as ≥ 50 mg/kg (mouse; intravenous).
The half-life of `CC[C@H](C)[C@@H]1NC(=O)[C@H](CCCCN)NC(=O)[C@H](CCCCN)NC(=O)[C@H](Cc2ccc(O)cc2)NC(=O)[C@H](CC(C)C)NC(=O)[C@@H]2CCCN2C(=O)CNC(=O)CNC(=O)[C@@H](N)CSSC[C@@H](C(=O)N[C@@H](CCC(=O)O)C(=O)N[C@@H](CO)C(N)=O)NC(=O)[C@H](CC(C)C)NC(=O)[C@H](CCCCN)NC(=O)[C@H](CCCCN)NC(=O)[C@H]([C@@H](C)CC)NC(=O)[C@H]([C@@H](C)CC)NC(=O)[C@H](CCCCN)NC(=O)[C@H](CCCCN)NC(=O)[C@H](Cc2ccc(O)cc2)NC(=O)[C@H](CC(C)C)NC(=O)[C@@H]2CCCN2C(=O)[C@H](C)NC(=O)CNC(=O)CNC(=O)[C@H](CO)NC(=O)CNC(=O)CNC(=O)[C@H](CO)NC(=O)[C@H](CCC(=O)O)NC(=O)[C@H](CC(C)C)NC(=O)[C@H](CC(C)C)NC(=O)[C@H](CCCCN)NC(=O)[C@H](CCCCN)NC(=O)[C@H]([C@@H](C)CC)NC1=O` is reported as ~24 h (25% human serum in PBS; 37 °C).
For `CN[C@](C)(C[18F])C(=O)O`, the brain uptake was 0.05 ± 0.01 %ID/g (rat (orthotopic brain tumour); 60 min).
For `CN1CCN([C@@H](c2ccccc2)c2ccc(Cl)cc2)CC1`, the half-life was 2 h (mouse, plasma; intraperitoneal, 50 mg/kg).
`CNC(=O)N[C@H]1CC[C@H](CCN2CCN(c3cccc(Cl)c3Cl)CC2)CC1`: “exposure relative to parent drug” 30 to 40% (human, plasma).
`CSCC[C@H](NC(=O)CNC(=O)CNC(=O)[C@H](CO)NC(=O)[C@H](CC(C)C)NC(=O)[C@@H]1CCCN1C(=O)[C@H](CO)NC(=O)[C@H](CC(N)=O)NC(=O)[C@H](CC(C)C)NC(=O)[C@H](C)NC(=O)[C@@H](NC(=O)[C@H](CC(C)C)NC(=O)[C@H](Cc1c[nH]cn1)NC(=O)[C@H](CC(C)C)NC(=O)[C@@H](NC(=O)[C@@H]1CCCN1C(=O)[C@H](CCC(N)=O)NC(=O)[C@H](Cc1ccccc1)NC(=O)[C@H](CC(=O)O)NC(=O)[C@H](CCCNC(=N)N)NC(=O)[C@H](Cc1c[nH]cn1)NC(=O)[C@H](CO)NC(=O)[C@H](Cc1c[nH]cn1)NC(=O)[C@H](CCSC)NC(=O)[C@H](CC(=O)O)NC(=O)CNC(=O)[C@H](CCCNC(=N)N)NC(=O)[C@H](CC(=O)O)NC(=O)CNC(=O)[C@@H](N)CCCNC(=N)N)C(C)C)C(C)C)C(N)=O` gave an elimination half-life of 3 min (rat; 30 mg/kg).
`[O-][N+]1=C(c2ccsc2)C2=NCCCN2c2ccccc21` gave a logP of -0.01 (octanol/PBS).
`CN[C@H](CC(C)C)C(=O)N[C@H]1C(=O)N[C@@H](CC(N)=O)C(=O)N[C@H]2C(=O)N[C@H]3C(=O)N[C@H](C(=O)N[C@H](C(=O)O)c4cc(O)cc(O)c4-c4cc3ccc4O)[C@H](O)c3ccc(c(Cl)c3)Oc3cc2cc(c3O[C@@H]2O[C@H](CO)[C@@H](O)[C@H](O)[C@H]2O[C@H]2C[C@](C)(NCc3ccc(-c4ccc(Cl)cc4)cc3)[C@H](O)[C@H](C)O2)Oc2ccc(cc2Cl)[C@H]1O` has an AUC of 575 µg·h/mL (mouse, plasma; intravenous, 75 mg/kg (MTD)).
For `CN(CCCN)[C@H](C(=O)O)[C@H](O[C@@H]1O[C@H](CN)[C@@H](O)[C@H]1O)[C@H]1O[C@@H](n2ccc(=O)[nH]c2=O)[C@H](O)[C@@H]1O`, the LD50 was > 500 mg/kg (mouse; intravenous).
With `CCOC(=O)CNC(=O)[C@@H]1C[C@H](C)CC[C@H]1C(C)C` the NOAEL was 75 mg/kg/day (rat Crl:CD(SD); oral gavage, 90 days).
`COC1CC(OC2CCC3(C)C4CCC5(C)C(C6=CC(=O)OC6)CCC5(O)C4CCC3(O)C2)OC(C)C1OC1OC(CO)C(O)C(O)C1O` (stereo not shown) has a total excretion of < 14% (refers to: compound and hydrolysate; rat, urine and faeces).
`COc1ccc(CCN2CCN(C/C=C/[125I])CC2)cc1OC` — result for “unchanged parent fraction”: 90% (mouse, liver; dose not given).
`CNC1C(O)C(NC)C2OC3(O)C(OC(C)C[C@H]3NC(=O)Cc3cscn3)OC2C1O.Cl.Cl` (stereo partly shown) has a half-life of 5.6 h (mouse liver microsomes).
For `CCCCCCCC(=O)OC[C@H](NC(=O)[C@H](CO)NC(=O)CN)C(=O)N[C@@H](Cc1ccccc1)C(=O)N[C@@H](CC(C)C)C(=O)N[C@@H](CO)C(=O)N1CCC[C@H]1C(=O)N[C@@H](CCC(=O)O)C(=O)N[C@@H](Cc1cnc[nH]1)C(=O)N[C@@H](CCC(N)=O)C(=O)N[C@@H](CCCNC(=N)N)C(=O)N[C@H](C(=O)N[C@@H](CCC(N)=O)C(=O)N[C@@H](CCC(N)=O)C(=O)N[C@@H](CCCNC(=N)N)C(=O)N[C@@H](CCCCN)C(=O)N[C@@H](CCC(=O)O)C(=O)N[C@@H](CO)C(=O)N[C@@H](CCCCN)C(=O)N[C@@H](CCCCN)C(=O)N1CCC[C@H]1C(=O)N1CCC[C@H]1C(=O)N[C@@H](C)C(=O)N[C@@H](CCCCN)C(=O)N[C@@H](CC(C)C)C(=O)N[C@@H](CCC(N)=O)C(=O)N1CCC[C@H]1C(=O)N[C@@H](CCCNC(=N)N)C(=O)O)C(C)C`, the half-life was 0.15 to 0.217 h (intravenous bolus, 1 and 5 µg/kg).
`CC[C@H](C)[C@H](NC(=O)[C@H](CCCCN)NC(=O)[C@H](CCCCN)NC(=O)[C@H](Cc1ccccc1)NC(=O)[C@H](CC(C)C)NC(=O)[C@H](CCCCN)NC(=O)[C@H](Cc1c[nH]c2ccccc12)NC(=O)[C@H](CCCCN)NC(C)=O)C(=O)NCC(=O)N[C@@H](C)C(=O)N[C@H](C(=O)N[C@@H](CC(C)C)C(=O)N[C@@H](CCCCN)C(=O)N[C@H](C(=O)N[C@@H](CC(C)C)C(N)=O)C(C)C)C(C)C` gave an alpha-helical content of ~60% (membranes).
The lethal dose of `O=C([O][Ti+2][O]C(=O)c1ccc(P(c2ccccc2)c2ccccc2)cc1)c1ccc(P(c2ccccc2)c2ccccc2)cc1.[Cl][Au].[Cl][Au].c1cc[cH-]c1.c1cc[cH-]c1` is reported as 15 mg/kg/day (C57BL/6 mouse).
`O=C(O)CCC(NP(=O)(O)OCCC[C@@H](NC(=O)CCC(NC(=O)CCCCCNC(=O)c1ccc([18F])cc1)C(=O)O)C(=O)O)C(=O)O` (stereo partly shown) gave a tumour uptake of 2.35 %ID/g (mouse, CWR22Rv1 xenograft, tumour; 1 h).
With `COc1cc2c3cc1Oc1c(OC)c(OC)cc4c1[C@@H](Cc1ccc(O)c(c1)Oc1ccc(cc1)C[C@@H]3N(C)CC2)N(C)CC4` the LD50 was 1700 ± 200 mg/kg (mouse).
`O=C(N[C@@H](Cc1coc2ccccc12)B(O)O)[C@@H]1C[C@H]2CC[C@@H]1O2` — result for tolerability: “not toxic” (dog; oral, 10 mg/kg once daily, repeated dosing).
`F[P-](F)(F)(F)(F)F.OCP(CO)CO.OCP(CO)CO.OCP(CO)CO.OCP(CO)CO.[Cu+]`: stability “stable” (water).
`C[C@H]1[C@H](OC(=O)CC[C@@H](C)C2CCC3C4C(CC[C@@]32C)[C@@]2(C)CC[C@@H](O)CC2C[C@@H]4O)O[C@@H]2O[C@@]3(C)CCC4[C@H](C)CC[C@@H]1[C@]42OO3` (stereo partly shown): stability “stable” (cell culture medium; up to 24 h).
The TD50 of `COC[C@@H](NC(C)=O)C(=O)NCc1ccc(OCc2ccccc2)cc1` is reported as > 250 mg/kg (behavioural toxicity; rat; oral).
`OC1C=Cc2c(cc3ccc4cccc5c6ccccc6c2c3c45)C1O` (stereo not shown) gave a Km of 29.7 µM (mouse liver microsomes; phase II glucuronidation (UGT)).

Some of these lines once more:
The lethal dose of `O=C([O][Ti+2][O]C(=O)c1ccc(P(c2ccccc2)c2ccccc2)cc1)c1ccc(P(c2ccccc2)c2ccccc2)cc1.[Cl][Au].[Cl][Au].c1cc[cH-]c1.c1cc[cH-]c1` is reported as 15 mg/kg/day (C57BL/6 mouse).
`CN(C)C(=N)N=C(N)N` gave an oral absorption of 50% (human; dose not given).
Under “maximum tolerated dose”, `CN[C@H](CC(C)C)C(=O)N[C@H]1C(=O)N[C@@H](CC(N)=O)C(=O)N[C@H]2C(=O)N[C@H]3C(=O)N[C@H](C(=O)N[C@H](C(=O)NCCCNC(=N)N)c4cc(O)cc(O)c4-c4cc3ccc4O)[C@H](O)c3ccc(c(Cl)c3)Oc3cc2cc(c3O[C@@H]2O[C@H](CO)[C@@H](O)[C@H](O)[C@H]2O[C@H]2C[C@](C)(NCc3ccc(-c4ccc(Cl)cc4)cc3)[C@H](O)[C@H](C)O2)Oc2ccc(cc2Cl)[C@H]1O` is recorded as ≥ 50 mg/kg (mouse; intravenous).
